# Experimental data gathered from unrelated publications.
# Parts stem from different laboratories: compare values within a part only. Substitutions count along the parent as printed.

# Study 1
# Target: CCNB3, cyclin fold, Cln2 fusion (human)
# Technique: yeast growth competition, sequencing
# Medium: yeast
# Setting: weak parent motif
# Reference: not given
# Reading: higher = stronger binding
# Parent: INSM1 docking peptide (human); PKAIRKLHFEDEV
Substitution,normalised enrichment score
D11Q,0.565
D11W,0.246
F9A,-0.491
A3W,-0.262
F9Q,-0.212
D11H,0.19

# Study 2
# Target: DBP, bZIP domain (human)
# Technique: DHFR protein complementation
# Medium: yeast
# Setting: single substitutions, most at no-binding floor
# Reference: wild-type JUN-FOS pair
# Reading: higher = stronger binding
# Parent: JUN, bZIP domain (human); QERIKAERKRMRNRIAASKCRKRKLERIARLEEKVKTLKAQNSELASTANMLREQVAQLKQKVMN; partner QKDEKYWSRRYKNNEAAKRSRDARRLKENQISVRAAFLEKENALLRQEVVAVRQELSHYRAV
Substitution,binding fitness
E32R,-1.34 natural log
K36E,-1.53 natural log
Q41A,-1.21 natural log
K39C,-1.54 natural log
L38E,-1.25 natural log

# Study 3
# Target: Histone acetyltransferase KAT6A, both winged helices, GST fusion (KAT6A, Homo sapiens, UniProt Q92794, residues 1-181)
# Technique: protein binding microarray
# Form: double-stranded DNA, one strand shown
# Medium: in vitro
# Tested at: not given
# Setting: 8-mer, flanks averaged, mean of 2 arrays, mostly near background
# Reference: not given
# Reading: higher = stronger binding
# Target sequence (chain): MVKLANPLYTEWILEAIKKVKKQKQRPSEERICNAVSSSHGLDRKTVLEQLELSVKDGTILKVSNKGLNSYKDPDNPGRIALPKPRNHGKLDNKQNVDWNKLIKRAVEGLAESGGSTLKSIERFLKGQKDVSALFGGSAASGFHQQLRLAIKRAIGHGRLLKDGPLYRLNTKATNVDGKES
Strand,E-score
TCGTCTAA,0.0291
ATTAGCGG,0.213
GCGGAAAA,0.266
GCTACCAC,-0.109
ATGTTGAA,-0.00154
CTCTTTGA,-0.0249
ATGGAGCC,-0.179
TATTAAGA,-0.0152
TCACGGGA,0.24

# Single results of other studies
Molecule,target,assay,test system,setting,scale,quantity,result
"PhoQ, residues 284 288 289 292 302 303 AGHLVA","PhoP, residues 12 14 15 18 19 STWGI (Escherichia coli, UniProt P23836)","Sort-seq, refers to: YFP reporter",E. coli,"PhoQ-PhoP variant library, with: 10 µM Mg2+","reference: high Mg2+ state, higher = stronger signaling",fold induction,2.56
